Measured values from different studies.
Each line is one published result; not all experiments were run side by side. “And” joins repeats or separate records; there may be more than shown. Numbers after ± are the reported error.
Chain of UniProt Q86VL8 (whole entry, looked up): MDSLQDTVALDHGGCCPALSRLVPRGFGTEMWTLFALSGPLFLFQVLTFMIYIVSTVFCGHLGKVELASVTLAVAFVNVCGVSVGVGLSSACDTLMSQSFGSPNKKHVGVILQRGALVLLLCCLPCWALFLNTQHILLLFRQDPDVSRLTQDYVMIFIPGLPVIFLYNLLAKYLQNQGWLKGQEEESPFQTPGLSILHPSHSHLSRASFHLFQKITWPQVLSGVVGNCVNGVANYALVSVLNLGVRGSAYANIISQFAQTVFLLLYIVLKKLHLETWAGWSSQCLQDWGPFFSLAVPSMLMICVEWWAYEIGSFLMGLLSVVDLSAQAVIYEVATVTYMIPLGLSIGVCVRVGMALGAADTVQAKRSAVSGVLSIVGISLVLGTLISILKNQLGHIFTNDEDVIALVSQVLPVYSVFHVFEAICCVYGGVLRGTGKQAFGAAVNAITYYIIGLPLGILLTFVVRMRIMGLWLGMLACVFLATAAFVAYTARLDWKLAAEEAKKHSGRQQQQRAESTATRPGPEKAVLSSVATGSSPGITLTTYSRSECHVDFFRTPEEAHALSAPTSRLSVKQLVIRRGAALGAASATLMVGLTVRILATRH

SMILES	tested on	test	test system	conditions	measurement	result
COc1ccc(-n2cc(C(=O)N3C[C@]4(OC(=O)c5ccccc5NC(C)=O)CC[C@H](OC)[C@@]56[C@@H]4C[C@@H]([C@@H]35)[C@@]3(O)C[C@H](OC)[C@H]4C[C@@H]6[C@]3(O)[C@H]4OC)nn2)cc1	–	–	rat Sprague-Dawley, plasma	intravenous, 2 mg/kg	MRT(0-inf)	25.6 min
CC(C)(C)C(=O)OCOP(=O)(OCOC(=O)C(C)(C)C)C1CCCN(O)C1=O (stereo not drawn)	NCI-H322M	–	–	–	CC50	> 100 µM
NC1CCN(C(=O)Oc2ccc(C3CCCC4(C3)OOC3(O4)C4CC5CC(C4)CC3C5)cc2)CC1 (racemic)	–	–	male ICR mice, plasma	oral, 50 mg/kg	Tmax	130 min
Cc1nc2cccc(OCC(C)(C)C(=O)NC(C)C)c2c(N)c1C(=O)[O-].[Na+]	Escherichia coli	reverse mutation, plate incorporation	WP2 uvrA	0.32 mg/plate, without S9	revertant colonies	29 ± 3 colonies/plate
CN[C@H]1CCN(C(=O)c2c(C)cc(C(F)(F)F)nc2-c2ccnc3cc(CN4C(=O)C5C(C4=O)C5(C)C)sc23)C1 (stereo partly drawn)	–	–	CT26 tumour-bearing mouse, blood	dose not given	blood lymphocyte count	decreased
CCCCCC[C@H]1C(=O)O[C@H](C)[C@H](NC(=O)c2cccc(NC=O)c2O)C(=O)O[C@@H](C)[C@@H]1OC(=O)CC(C)C	–	–	BALB/c mouse	10 (unit not given)	LD50	6.13 mg/kg
CC[C@H](C)[C@H](NC(=O)CNC(=O)[C@H](CCSC)NC(=O)[C@H](CCC(N)=O)NC(=O)[C@H](C)NC(=O)[C@H](CCC(N)=O)NC(=O)[C@@H](NC(=O)[C@H](CC(C)C)NC(=O)[C@H](C)NC(=O)[C@H](CO)NC(=O)[C@H](CCSC)NC(=O)[C@H](CCC(=O)O)NC(=O)[C@H](CC(C)C)NC(=O)[C@H](Cc1ccc(O)cc1)NC(=O)[C@H](CO)NC(=O)[C@H](CCC(=O)O)NC(=O)[C@H](CCC(N)=O)NC(=O)[C@H](CCCNC(=N)N)NC(=O)[C@H](CCCCN)NC(=O)[C@H](CC(=O)O)NC(=O)[C@H](CC(C)C)NC(=O)[C@H](CC(N)=O)NC(=O)[C@H](Cc1ccccc1)NC(=O)[C@H](CCC(=O)O)NC(=O)[C@H](CCCCN)NC(=O)[C@@H](NC(=O)[C@H](CC(C)C)NC(=O)[C@H](CCC(=O)O)NC(=O)[C@H](CCC(=O)O)NC(=O)[C@@H](NC(=O)[C@@H](NC(=O)[C@H](CCCNC(=N)N)NC(=O)[C@H](CCCCN)NC(=O)[C@H](C)NC(=O)[C@H](Cc1ccccc1)NC(=O)[C@H](CCC(=O)O)NC(=O)[C@H](CCC(=O)O)NC(=O)[C@H](CC(C)C)NC(=O)[C@@H](N)CO)C(C)C)C(C)C)C(C)C)[C@@H](C)CC)C(=O)N[C@@H](CO)C(=O)N[C@@H](CCC(=O)O)C(=O)N[C@@H](CCCNC(=N)N)C(=O)N[C@H](C(=O)N[C@H](C(=O)N[C@@H](CCC(=O)O)C(=O)N[C@H](C(=O)N[C@H](C(=O)N[C@@H](CC(C)C)C(=O)N[C@@H](CCCNC(=N)N)C(=O)N[C@@H](Cc1c[nH]cn1)C(=O)N[C@@H](C)C(=O)N[C@@H](C)C(=O)N[C@@H](CCC(N)=O)C(=O)N[C@H](C(=O)N[C@@H](CC(C)C)C(=O)N[C@@H](CCCCN)C(=O)O)[C@@H](C)O)C(C)C)[C@@H](C)CC)[C@@H](C)CC)[C@@H](C)CC	–	LC-MS/MS	male ICR (CD-1) mice, plasma	intravenous, 1 mg/kg	Tmax	4.8 min
CSCC[C@@H]1NC(=O)[C@H](C(C)C)NC(=O)[C@H](CCCNC(=N)N)NC(=O)CNC(=O)[C@@H]2CCCN2C(=O)[C@@H](NC(=O)CNC(=O)[C@H](CO)NC(=O)CNC(=O)[C@H](CO)NC(=S)Nc2ccc(C[C@H]3CN(CC(=O)O)CCN(CC(=O)O)CCN3CC(=O)O)cc2)CSSC[C@@H](C(N)=O)NC(=O)[C@@H]2CCCN2C(=O)CNC(=O)[C@H](CCC(=O)O)NC(=O)[C@H](CC(=O)O)NC(=O)[C@H](CC(=O)O)NC(=O)CNC(=O)[C@H](CC(C)C)NC(=O)[C@H](Cc2c[nH]cn2)NC(=O)[C@H](CC(C)C)NC(=O)CNC(=O)[C@H](Cc2c[nH]cn2)NC1=O [copper-64 labelled]	–	dynamic PET	CD rat, myocardial infarction model, left ventricular blood pool	intravenous, 18.5 MBq, 15 to 60 min	half-life	27.5 ± 2.3 min
N=C(N)NCCC[C@@H](NC(=O)[C@H](N)Cc1c[nH]c2ccccc12)C(=O)N[C@H](CCCCN)C(=O)N[C@H](Cc1c[nH]c2ccccc12)C(=O)N[C@H](CCCNC(=N)N)C(=O)N[C@H](CCCCN)C(=O)N[C@H](Cc1c[nH]c2ccccc12)C(=O)N[C@H](CCCNC(=N)N)C(=O)N[C@H](CCCCN)C(=O)N[C@H](Cc1c[nH]c2ccccc12)C(=O)N[C@H](CCCNC(=N)N)C(=O)N[C@H](CCCCN)C(N)=O	–	–	mouse	intraperitoneal, 40 mg/kg single dose, day 6	survival	75%
CN1Cc2cc(Cl)ccc2-n2c(nnc2C2CCN(c3cccc([18F])n3)CC2)C1	–	–	C57BL/6 mouse male, thymus	intravenous, dose not given, 30 min, added: blocking agent 10 mg/kg	tissue uptake	3.71 ± 2.76 %ID/g
Cc1ccc(OCC(=O)N(Cc2cccs2)c2ccn[nH]2)cc1	–	in vivo micronucleus	Crl:CD-1(ICR) mice, female, bone marrow polychromatic erythrocytes	oral, 1000 mg/kg/day, 3 days	micronucleated PCEs	0%
C=Cc1c(C)c2cc3nc(c(CC(=O)O)c4[nH]c(cc5nc(cc1[nH]2)C(C)=C5CC)c(C)c4C(=O)O)[C@@H](CCC(=O)NCCCC[C@H](NC(C)=O)C(=O)N[C@@H](Cc1ccccc1)C(=O)N[C@@H](Cc1ccccc1)C(=O)N[C@H](C(=O)N[C@@H](CC(C)C)C(=O)N[C@@H](CCCCN)C(=O)N[C@@H](CO)C(=O)NCC(=O)N[C@@H](CCC(N)=O)C(=O)N[C@@H](Cc1ccc(O)cc1)C(=O)N[C@@H](C)C(=O)N[C@@H](CO)C(=O)N[C@@H](Cc1ccc(O)cc1)C(=O)N[C@@H](Cc1c[nH]cn1)C(=O)N[C@@H](CS)C(=O)N[C@@H](Cc1c[nH]c2ccccc12)C(=O)N[C@@H](CS)C(=O)N[C@@H](Cc1c[nH]c2ccccc12)C(=O)N[C@@H](CCCNC(=N)N)C(=O)N[C@@H](CC(=O)O)C(=O)N1CCC[C@H]1C(=O)NCC(=O)N[C@@H](CCCNC(=N)N)C(=O)N[C@@H](CO)C(=O)NCC(=O)NCC(=O)N[C@@H](CO)C(=O)N[C@@H](CCCCN)C(N)=O)C(C)C)[C@@H]3C	–	–	mouse, blood	12 h	blood concentration	69.2 µg/mL
CC(=O)N[C@H](C(=O)N[C@@H](CCCC(=O)OC(C)(C)C)C(=O)N[C@@H](CCC1CCCCC1)C(=O)N[C@@H](CC(=O)O)C(=O)COC(=O)c1c(C)cccc1C)C(C)(C)C	–	–	C57BL/6N mouse, female, whole blood	intraperitoneal, dose not given, 3 h	blood concentration	439 µM and 589 µM
CC(C)[C@@H]1NC(=O)CNC(=O)[C@H](CC(N)=O)NC(=O)[C@H](CCCNC(=N)N)NC(=O)[C@H](Cc2ccc(O)cc2)NC(=O)[C@H](C(C)C)NC(=O)[C@@H](NC(=O)[C@@H](NC(=O)[C@H](CC(N)=O)NC(=O)[C@H](Cc2c[nH]c3ccccc23)NC(=O)[C@H](C)NC(=O)[C@H](Cc2ccccc2)NC(=O)CNC(=O)[C@H](CCCCN)NC(=O)[C@H](Cc2ccccc2)NC(=O)[C@H](Cc2ccccc2)NC(=O)[C@H](CCCCN)NC(=O)OCC2c3ccccc3-c3ccccc32)C(C)C)CSSC[C@@H](C(=O)N[C@@H](Cc2c[nH]cn2)C(=O)N[C@@H](CCCNC(=N)N)C(=O)N[C@@H](CCCNC(=N)N)C(=O)N[C@@H](C)C(=O)N[C@@H](CC(N)=O)C(N)=O)NC(=O)[C@H](C(C)C)NC(=O)[C@H](CCCNC(=N)N)NC1=O	–	–	ICR mice, blood	intraductal mammary, 5 mg/kg, day 5	monocytes	2.94 ± 0.16%
CC[C@H](C)[C@H](NC(=O)[C@H](CCCNC(=N)N)NC(=O)[C@H](CCCCN)NC(=O)[C@H](Cc1ccc(O)cc1)NC(=O)[C@H](CC(=O)O)NC(=O)[C@H](C)NC(=O)CNC(=O)CCOCCOCCOCCNC(=O)CN1CCN(CC(=O)O)CCN(CC(=O)O)CCN(CC(=O)O)CC1)C(=O)N[C@H](C(=O)N[C@@H](CC(C)C)C(=O)N[C@@H](CCCCN)C(=O)N[C@H](C(=O)N[C@@H](CC(N)=O)C(N)=O)C(C)C)[C@@H](C)O [copper-64 labelled]	–	ex vivo gamma counting	C57BL/6J male mice, B16-F10 tumour, lung	intravenous, 1.85 MBq, 40 min	tissue uptake	1.58 ± 0.229 %ID/g
C=Cc1c(C)c2cc3nc(c(CC(=O)[O-])c4[n-]c(cc5nc(cc1[n-]2)C(C)=C5CC)c(C)c4C(=O)[O-])C(CCC(=O)[O-])C3C.[Cu+2].[Na+].[Na+].[Na+] (stereo not drawn)	–	–	Wistar rat, female	oral, 250 mg/kg daily, 28 days	serum alkaline phosphatase	164 ± 43.7 U/L
CC[C@H](C)[C@H](NC(=O)[C@H](CCCCN)NC(=O)CNC(=O)[C@H](CC(C)C)NC(=O)[C@H](Cc1ccccc1)NC(=O)[C@H](CCCCN)NC(=O)[C@H](CO)NC(=O)[C@H](Cc1ccccc1)NC(=O)[C@H](Cc1c[nH]c2ccccc12)NC(=O)[C@H](CCC(N)=O)NC(=O)[C@@H](NC(=O)[C@H](Cc1ccccc1)NC(=O)CCCCCNC(=O)CN1CCN(CC(=O)O)CCN(CC(=O)O)CCN(CC(=O)O)CC1)C(C)C)C(=O)N[C@@H](CCC(=O)O)C(=O)N1CCC[C@H]1C(=O)N[C@@H](CC(=O)O)C(=O)N[C@H](C(=O)N[C@@H](CO)C(=O)N[C@@H](CCC(N)=O)C(=O)N[C@H](C(=O)N[C@@H](CCC(N)=O)C(=O)N[C@@H](CC(=O)O)C(=O)N1CCC[C@H]1C(=O)N[C@@H](CC(N)=O)C(=O)N[C@@H](CC(=O)O)C(=O)N[C@@H](CCC(N)=O)C(=O)N[C@@H](Cc1ccc(O)cc1)C(=O)N[C@@H](CCC(=O)O)C(=O)N1CCC[C@H]1C(=O)N[C@@H](Cc1ccccc1)C(=O)O)C(C)C)C(C)C [copper-64 labelled]	–	dynamic PET	mouse both sexes, CT26 tumour, untreated, tumour	intravenous, 100 µCi/mouse, 10 s	SUVmean	0.03 SUV
O=C1NC2(CC2)COc2ncc(F)cc2[C@H]2COCCN2c2ccn3ncc1c3n2	–	–	Sprague-Dawley rat, male, kidneys	oral, 10 mg/kg/day, 4 weeks dosing, end of recovery	organ-to-body weight ratio	0.676 ± 0.067%
O=C(O)CC[C@H](NC(=O)[C@H](CCC(=O)O)NC(=O)[C@H](CCC(=O)O)NC(=O)[C@H](CCC(=O)O)NC(=O)[C@H](CCC(=O)O)NC(=O)CNC(=O)[C@H](CCC(=O)O)NC(=O)CNC(=O)[C@H](CCC(=O)O)NC(=O)[C@@H](Cc1ccccc1)NC(=O)[C@@H](Cc1ccccc1)NC(=O)Cc1ccc2ccccc2c1)C(=O)O	–	circular dichroism	PBS	500 µM, pH 7, above CMC	first negative CD peak wavelength	202 nm
CC[C@H](C)[C@H](NC(=O)[C@H](Cc1ccc(O)cc1)NC(=O)[C@@H](NC(=O)[C@H](CCCNC(=N)N)NC(=O)[C@@H](N)CC(=O)O)C(C)C)C(=O)N[C@@H](Cc1c[nH]cn1)C(=O)N1CCC[C@H]1C(=O)O	–	–	Beagle dogs, both sexes, plasma	subcutaneous, 10 mg/kg/day, day 0	Tmax	26.2 ± 10.6 min
CC(=O)NCCCC[C@@H]1NC(=O)[C@H](Cc2c[nH]c3c(C)cccc23)NC(=O)[C@H]([C@@H](C)O)NC(=O)[C@H](CC(N)=O)NC(=O)[C@@H](NC(C)=O)C(C)(C)SSC(C)(C)[C@@H](C(=O)N[C@@H](Cc2ccc(OCCN)cc2)C(=O)N[C@@H](Cc2ccc3ccccc3c2)C(=O)NC2(C(=O)N[C@@H](CCC(=O)O)C(=O)N[C@@H](CC(N)=O)C(=O)N[C@@H](Cc3cccnc3)C(=O)N(C)CC(N)=O)CCOCC2)NC1=O	SLC47A2 (Homo sapiens, UniProt Q86VL8)	substrate	MDCK-II overexpressing transporter	5 µM, 30 min, added: 100 µM pyrimethamine	uptake rate	0.699 ± 0.044 pmol/mg/min

Excerpt of the above:
SMILES	tested on	test	test system	conditions	measurement	result
N=C(N)NCCC[C@@H](NC(=O)[C@H](N)Cc1c[nH]c2ccccc12)C(=O)N[C@H](CCCCN)C(=O)N[C@H](Cc1c[nH]c2ccccc12)C(=O)N[C@H](CCCNC(=N)N)C(=O)N[C@H](CCCCN)C(=O)N[C@H](Cc1c[nH]c2ccccc12)C(=O)N[C@H](CCCNC(=N)N)C(=O)N[C@H](CCCCN)C(=O)N[C@H](Cc1c[nH]c2ccccc12)C(=O)N[C@H](CCCNC(=N)N)C(=O)N[C@H](CCCCN)C(N)=O	–	–	mouse	intraperitoneal, 40 mg/kg single dose, day 6	survival	75%
CN1Cc2cc(Cl)ccc2-n2c(nnc2C2CCN(c3cccc([18F])n3)CC2)C1	–	–	C57BL/6 mouse male, thymus	intravenous, dose not given, 30 min, added: blocking agent 10 mg/kg	tissue uptake	3.71 ± 2.76 %ID/g
